Assay results collected from several papers.
Lines come from different studies, so protocols differ. ≈ marks a conversion by molar mass, not a printed value.
Organism: Mycobacterium tuberculosis

CC1C(=NOCc2cc(-c3ccc(Cl)cc3)no2)C(C)C(c2ccc(Cl)cc2)OC1c1ccc(Cl)cc1 (stereo not drawn)
inhibition (resazurin; H37Rv; 6500 µg/mL): 95%

Cc1cc(S(=O)(=O)N(C)CC(=O)Nc2ccn(C)c(=O)c2)c2[nH]ncc2c1
survival (wild type; concentration not given, 4 days, pH 5.5): no effect

CC1C(=NNC(=O)c2ccncc2)C(C)C(c2ccc(Cl)cc2)OC1c1ccc(Cl)cc1 (stereo not drawn)
inhibition (resazurin; H37Rv; 6500 µg/mL): 90%

Cc1[nH]c(=O)c(CNC(=O)c2ccc(N(C)C)cc2)c2c1CCCC2
inhibition (microbial growth, resazurin; H37RV; 25 µg/mL): 26.9%

CC1C(=NNC(=O)c2ccncc2)C(C)C(c2ccc(Br)cc2)OC1c1ccc(Br)cc1 (stereo not drawn)
inhibition (resazurin; H37Rv; 6500 µg/mL): 95%

Nc1c2c(nc3sc4c(c13)CCCCC4)CCCC2
MIC50 (microbial growth; 5 days): 1.7 µM

O=S(=O)(c1ccccc1)N(CCc1nnc(S)o1)c1ccc(Cl)cc1
inhibition (BACTEC radiometric; H37Rv; 12.5 µg/mL): 54%

Cc1[nH]c(=O)c(CNC(=O)c2ccc(C(F)(F)F)nc2)c2c1CCCC2
inhibition (microbial growth, resazurin; H37RV; 20 µg/mL): 100%

CN[C@@H]1[C@H](O)[C@H](NC)[C@H]2O[C@]3(O)[C@H](O[C@@H]2[C@H]1O)O[C@H](C)C[C@H]3NC(=O)Cc1ccccn1
MIC50 (MDR and XDR isolates): 2.3 µg/mL

Cc1ccn2c(-c3csc(Nc4ccccn4)n3)c(C)nc2c1
MIC50 (microbial growth; 5 days): 1.7 µM

C=C1CC(COc2ccc3c(C)cc(=O)oc3c2)(c2ccccc2)OC1=O (stereo not drawn)
inhibition (microbial growth; H37RV; 551.9 µM): 83%

FC(F)(F)c1ccccc1Nc1nc(-c2cccnc2)cs1
inhibition (bacterial growth, Alamar blue; H37Rv; 10 µg/mL): 0%

CC1=NN(CNc2ccc(C(=O)O)c(O)c2)C(=O)/C1=N/Nn1c(-c2ccccc2)nc2ccccc2c1=O
selectivity index (H37Rv; reference: IC50 NIH 3T3 over MIC): 0.86

Cc1nc(=O)c2cc(CN(C)c3cccc(C(=O)N[C@@]4(C(=O)O)CCC[C@H](C(=O)O)C4)c3)ccc2[nH]1
MIC90 (microbial growth; H37RV): 34.8 µM (≈ 17.1 µg/mL)

Cc1ccc(N(CCc2nnc(S)o2)S(=O)(=O)c2ccccc2)cc1
inhibition (BACTEC radiometric; H37Rv; 12.5 µg/mL): 34%

Cc1cc(Oc2nc(N3CC[C@@H](c4ccncc4)C3)ncc2F)[nH]n1
lysed cells (time-lapse microscopy; Erdman tdTomato; 0.6 µM, up to 144 h): ~50%

Cc1[nH]c(=O)c(CNC(=O)c2ccccc2C(F)(F)F)c2c1CCCC2
inhibition (microbial growth, resazurin; H37RV; 25 µg/mL): 33.3%

C#CCN(Cc1ccc2nc(N)nc(N)c2c1)c1ccc(C(=O)N[C@@H](CCC(=O)OCC)C(=O)OCC)cc1
MIC90 (microbial growth; H37RV): 0.03 µM (≈ 0.016 µg/mL)

CCOC(=O)/C=C1/SC(N/N=C/c2c(-c3ccc(F)cc3)nc3ncccn23)=NC1=O
MIC (MABA; H37Rv ATCC 27294): 12.5 µg/mL (≈ 28.5 µM)

Cc1[nH]c(=O)c(CNC(=O)c2ccc(C(F)(F)F)cc2)c2c1CCCC2
inhibition (microbial growth, resazurin; H37RV; 25 µg/mL): 99.3%

Cc1ccc(S(=O)(=O)N(CCc2nnc(S)o2)c2ccc(Cl)cc2)cc1
inhibition (BACTEC radiometric; H37Rv; 12.5 µg/mL): 45%

Cc1nc(=O)c2cc(CN(C)c3ccc(C(=O)Nc4n[nH]c5ccccc45)s3)ccc2[nH]1
MIC50 (pptH knockout): 63.2 µM

Cc1cc(C)c2cc(C(=O)NC3CCCCCC3)[nH]c2c1
MBC (microbial killing; H37RV): 0.0313 µg/mL

COc1ccc(NC(=O)CN(C)S(=O)(=O)c2cc(C)cc3cn[nH]c23)cc1Cl
MIC90 (microbial growth; H37RV; 10 days): 25 µM (≈ 10.6 µg/mL)

Cc1[nH]c(=O)c(CNC(=O)c2cccc(C(F)(F)F)c2)c2c1CCCC2
inhibition (microbial growth, resazurin; H37RV; 25 µg/mL): 45.1%

Cc1nc(=O)c2cc(CN(C)c3cccc(C(=O)Nc4n[nH]c5ccccc45)c3)ccc2[nH]1
MIC50 (pptT knockdown with ATc): 50.8 µM

CN(C)c1ccc(-c2nc3ccccc3n2CCCOc2ccccc2)cc1
MIC50 (microbial growth; 5 days): 27 µM

O=C(Cc1cccs1)N[C@@H]1C(=O)N2C(C(=O)O)=C(CSc3cccc[n+]3[O-])CS[C@H]12
MBC (H37Rv; non-replicating): 3.1 µM

NC(=O)c1cnccn1
MIC (MABA; H37Rv ATCC 27294): 3.12 µg/mL (≈ 25.3 µM)

C#CCN(Cc1ccc2nc(N)nc(N)c2c1)c1ccc(C(=O)N[C@@H](CCC(=O)O)C(=O)O)cc1
MIC90 (pptT knockdown without ATc): 3.2 µM (≈ 1.52 µg/mL)

CN[C@@H]1[C@H](O)[C@H](NC)[C@H]2O[C@]3(O)[C@H](O[C@@H]2[C@H]1O)O[C@H](C)C[C@H]3NC(=O)Cc1cc(Cl)ccn1
MIC50 (MDR and XDR isolates): 1.6 µg/mL

COC(=O)[C@H](CCCNC(=O)OC(C)(C)C)NC(=O)c1ccc(NCc2ccc3nc(N)nc(N)c3c2Cl)cc1
MIC90 (pptT knockdown without ATc): < 0.1 µM

O=C1c2ccccc2C(=O)N1c1nnc(-c2ccc(Cl)cc2)s1
IC50 (bacterial growth; H37Rv): > 200 µM

A few entries again:
Cc1[nH]c(=O)c(CNC(=O)c2cccc(C(F)(F)F)c2)c2c1CCCC2
inhibition (microbial growth, resazurin; H37RV; 25 µg/mL): 45.1%

Cc1nc(=O)c2cc(CN(C)c3cccc(C(=O)Nc4n[nH]c5ccccc45)c3)ccc2[nH]1
MIC50 (pptT knockdown with ATc): 50.8 µM
